# Measured values gathered from unrelated publications.
# ± gives the spread as reported.
Compound,target or system,test,system,conditions,how to read,quantity,result
CCOC(=O)[C@@](CC)(CCCSCCOCCOCCN)NC(=O)c1ccc(C2CC2)c(Cc2ccc(F)cc2)n1,"CNR2 (Homo sapiens, UniProt P34972)",cAMP level,,together with: forskolin,relative to: CB1 over CB2 (human),EC50 ratio,> 909
N[C@H]1CC[C@H](Nc2nccc(-c3cccnc3Oc3ccc(NC(=O)NC4CC4)c4ccccc34)n2)CC1,"CDK12 (Homo sapiens, UniProt Q9NYV4)",kinobead competition pulldown,HEK293/HCT116 lysate mixture,"10 µM, 1 h, 4 °C",lower = stronger competition,log2 LFQ intensity,25.6
COC1CN([C@H]2CC[C@H]([C@@]3(C)Oc4c(Cl)cc(C(=O)NCc5c(SC)cc(C)[nH]c5=O)c(C)c4O3)CC2)C1,,"RNA-seq, refers to: HS2ST1","human, whole blood","dose not given, 24 h",relative to: pretreatment baseline,log2 fold change,1.55
CCCCCCCCCCCCC/C=C/C=O,"MOB4 (Homo sapiens, UniProt Q9Y3A3)",competitive isoTOP-ABPP,Ramos soluble proteome,"100 µM, 60 min, together with: iodoacetamide probe","relative to: DMSO over compound-treated, higher = stronger cysteine blockade",isoTOP-ABPP competition ratio,1
Cc1ncsc1-c1ccc(C(C)NC(=O)C2CC(O)CN2C(=O)C(NC(=O)CCCCCCCCCCN2CCCC(Nc3ncc(Cl)c(Nc4ccccc4S(=O)(=O)C(C)C)n3)C2)C(C)(C)C)cc1 (stereo not shown),22Rv1,"RNA-seq, refers to: NEB",,concentration not given,relative to: DMSO,log2 fold change,-1.78
CC1=C(/C=C/C(C)=C\C=C\C(C)=C\C=O)C(C)(C)CCC1,"Rhodopsin (RHO, Homo sapiens, UniProt P08100, E181K)","ER retention, co-localization with calnexin",COS-7 transfected E181K,"10 µM, multinucleated cells",,Pearson correlation coefficient,0.585 ± 0.01
CC(C)[C@@H]1NC(=O)[C@H](Cc2ccccc2)NC(=O)CSC[C@@H](C(N)=O)NC(=O)[C@H](CCC(=O)O)NC(=O)[C@H](CO)NC(=O)[C@H](Cc2c[nH]c3cccc(Cl)c23)NC(=O)[C@H](C2CCCCC2)NC(=O)[C@H](C(C)C)NC(=O)[C@H](Cc2ccc(O)cc2)NC(=O)[C@H](CC(=O)O)NC(=O)[C@H](Cc2c[nH]c3ccccc23)NC(=O)[C@H](Cc2ccc(N)nc2)NC(=O)[C@H](Cc2c[nH]c3ccc(Cl)cc23)NC(=O)[C@H](CCC(=O)O)NC1=O,"Interleukin-1 receptor-like 2 (IL1RL2, Homo sapiens, UniProt Q9HB29)","reporter gene (SEAP), inhibitor, HEK-Blue IL-36R reporter",HEK-Blue IL-36R cells,"1.23 µM, 6 h, together with: IL-36β 0.03 ng/mL",,remaining activity,4.3%
NC(=O)c1cccc(NC(=O)c2cccnc2N2CCOCC2)c1,"Genome polyprotein, NS2B-NS3 protease (dengue virus type 2, UniProt P29990)","enzyme activity, fluorogenic AMC substrate",,50 µM,,inhibition,21%
NS(=O)(=O)c1ccc(CCN2C(=O)c3ccc(N4CCOCC4)cc3C2=O)cc1,"CA2 (Bos taurus, UniProt P00921)",binding,,"2 µM, pH 7.2",relative to: without protein,fluorescence turn-on,5.4 fold
CC(O)(c1cccc(F)c1)c1cn(C2OC(CO)C(O)C(O)C2O)nn1 (stereo not shown),"MDM2 (Homo sapiens, UniProt Q00987)","thermal stability, DSF",,30 µM,,ΔTm,4.77 °C
O=C1c2sc(-c3ccc(N4CCC(CO)CC4)nc3F)nc2CCN1c1cccnc1,"TAR DNA-binding protein 43, aggregated (TARDBP, Homo sapiens, UniProt Q13148)",radioligand binding,control brain sarkosyl-insoluble extract,2.52 nM,,specific binding,-4 pM
COC(=O)Cc1cc2c(cc1C(=O)c1ccccc1I)OCO2,"Gria2 (Rattus norvegicus, UniProt P19491)","glutamate-evoked current, whole-cell patch clamp",HEK-293T,"concentration not given, weighted tau, 500 ms pulse, together with: glutamate",,desensitization time constant,2.5 ± 0.1 ms
CC(=O)N[C@@H](Cc1ccc(N)cc1)C(=O)N[C@@H](CCCC(=O)O)C(=O)N[C@@H](CC1CCCCC1)C(=O)N[C@@H](CC(=O)O)C(=O)COC(=O)c1c(C)cccc1C,"Caspase-7 (CASP7, Homo sapiens, UniProt P55210)","enzyme activity, inhibitor",,,,kinact/KI,16600 M⁻¹ s⁻¹
COc1cc(Nc2nccc(-c3cnn4nc(OC)ccc34)n2)cc(C(F)(F)F)c1,"Tyrosine-protein kinase ABL1, phosphorylated (ABL1, Homo sapiens, UniProt P00519, Y253F)",binding,,1 µM,,remaining binding,82%
Cc1cnc2nc1Nc1cccc(c1)COC/C=C/COCc1cc(ccc1OCCN1CCOCC1)N2,"MAP4K3 (Homo sapiens, UniProt Q8IVH8)",cell-free assay,,0.1 µM,,remaining signal,88%
CNC(=O)c1cnc(Nc2ccncc2)nc1-c1ccc(C)cc1,human kinase panel,"binding, KINOMEscan",,"10000 nM, %Ctrl below 35",,number of kinases hit,3

# Excerpt of the above:
Compound,target or system,test,system,conditions,how to read,quantity,result
CC(C)[C@@H]1NC(=O)[C@H](Cc2ccccc2)NC(=O)CSC[C@@H](C(N)=O)NC(=O)[C@H](CCC(=O)O)NC(=O)[C@H](CO)NC(=O)[C@H](Cc2c[nH]c3cccc(Cl)c23)NC(=O)[C@H](C2CCCCC2)NC(=O)[C@H](C(C)C)NC(=O)[C@H](Cc2ccc(O)cc2)NC(=O)[C@H](CC(=O)O)NC(=O)[C@H](Cc2c[nH]c3ccccc23)NC(=O)[C@H](Cc2ccc(N)nc2)NC(=O)[C@H](Cc2c[nH]c3ccc(Cl)cc23)NC(=O)[C@H](CCC(=O)O)NC1=O,"Interleukin-1 receptor-like 2 (IL1RL2, Homo sapiens, UniProt Q9HB29)","reporter gene (SEAP), inhibitor, HEK-Blue IL-36R reporter",HEK-Blue IL-36R cells,"1.23 µM, 6 h, together with: IL-36β 0.03 ng/mL",,remaining activity,4.3%
NC(=O)c1cccc(NC(=O)c2cccnc2N2CCOCC2)c1,"Genome polyprotein, NS2B-NS3 protease (dengue virus type 2, UniProt P29990)","enzyme activity, fluorogenic AMC substrate",,50 µM,,inhibition,21%
